Assay results gathered from unrelated publications.
Parts stem from different laboratories: compare values within a part only.
UniProt Q12866, sequence (whole entry, looked up): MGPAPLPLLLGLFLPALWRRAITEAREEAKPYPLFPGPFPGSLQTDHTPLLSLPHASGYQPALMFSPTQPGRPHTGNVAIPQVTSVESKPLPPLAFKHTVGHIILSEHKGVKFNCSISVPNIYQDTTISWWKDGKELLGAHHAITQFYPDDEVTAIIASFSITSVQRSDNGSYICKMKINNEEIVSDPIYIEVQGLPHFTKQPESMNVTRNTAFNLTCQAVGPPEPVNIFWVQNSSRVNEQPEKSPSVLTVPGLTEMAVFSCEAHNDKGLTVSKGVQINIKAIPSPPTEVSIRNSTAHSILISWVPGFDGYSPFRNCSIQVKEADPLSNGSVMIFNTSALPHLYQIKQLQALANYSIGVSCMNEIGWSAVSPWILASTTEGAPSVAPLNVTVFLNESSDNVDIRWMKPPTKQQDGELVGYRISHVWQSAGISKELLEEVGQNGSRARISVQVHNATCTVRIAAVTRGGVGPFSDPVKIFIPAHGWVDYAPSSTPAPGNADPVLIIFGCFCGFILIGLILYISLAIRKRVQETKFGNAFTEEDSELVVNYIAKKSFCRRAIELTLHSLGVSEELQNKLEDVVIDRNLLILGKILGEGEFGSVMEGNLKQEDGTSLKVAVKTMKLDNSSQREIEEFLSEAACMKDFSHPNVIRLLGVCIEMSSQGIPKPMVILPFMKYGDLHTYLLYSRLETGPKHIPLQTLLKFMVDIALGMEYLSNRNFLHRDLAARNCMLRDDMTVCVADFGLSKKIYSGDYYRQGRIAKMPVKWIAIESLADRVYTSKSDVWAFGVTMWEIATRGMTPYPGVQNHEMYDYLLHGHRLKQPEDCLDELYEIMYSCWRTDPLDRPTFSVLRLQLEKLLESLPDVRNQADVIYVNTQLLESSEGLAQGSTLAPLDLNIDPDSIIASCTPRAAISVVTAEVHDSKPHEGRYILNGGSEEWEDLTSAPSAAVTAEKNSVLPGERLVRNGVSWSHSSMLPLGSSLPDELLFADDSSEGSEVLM
UniProt P00519, sequence (whole entry, unmodified, looked up): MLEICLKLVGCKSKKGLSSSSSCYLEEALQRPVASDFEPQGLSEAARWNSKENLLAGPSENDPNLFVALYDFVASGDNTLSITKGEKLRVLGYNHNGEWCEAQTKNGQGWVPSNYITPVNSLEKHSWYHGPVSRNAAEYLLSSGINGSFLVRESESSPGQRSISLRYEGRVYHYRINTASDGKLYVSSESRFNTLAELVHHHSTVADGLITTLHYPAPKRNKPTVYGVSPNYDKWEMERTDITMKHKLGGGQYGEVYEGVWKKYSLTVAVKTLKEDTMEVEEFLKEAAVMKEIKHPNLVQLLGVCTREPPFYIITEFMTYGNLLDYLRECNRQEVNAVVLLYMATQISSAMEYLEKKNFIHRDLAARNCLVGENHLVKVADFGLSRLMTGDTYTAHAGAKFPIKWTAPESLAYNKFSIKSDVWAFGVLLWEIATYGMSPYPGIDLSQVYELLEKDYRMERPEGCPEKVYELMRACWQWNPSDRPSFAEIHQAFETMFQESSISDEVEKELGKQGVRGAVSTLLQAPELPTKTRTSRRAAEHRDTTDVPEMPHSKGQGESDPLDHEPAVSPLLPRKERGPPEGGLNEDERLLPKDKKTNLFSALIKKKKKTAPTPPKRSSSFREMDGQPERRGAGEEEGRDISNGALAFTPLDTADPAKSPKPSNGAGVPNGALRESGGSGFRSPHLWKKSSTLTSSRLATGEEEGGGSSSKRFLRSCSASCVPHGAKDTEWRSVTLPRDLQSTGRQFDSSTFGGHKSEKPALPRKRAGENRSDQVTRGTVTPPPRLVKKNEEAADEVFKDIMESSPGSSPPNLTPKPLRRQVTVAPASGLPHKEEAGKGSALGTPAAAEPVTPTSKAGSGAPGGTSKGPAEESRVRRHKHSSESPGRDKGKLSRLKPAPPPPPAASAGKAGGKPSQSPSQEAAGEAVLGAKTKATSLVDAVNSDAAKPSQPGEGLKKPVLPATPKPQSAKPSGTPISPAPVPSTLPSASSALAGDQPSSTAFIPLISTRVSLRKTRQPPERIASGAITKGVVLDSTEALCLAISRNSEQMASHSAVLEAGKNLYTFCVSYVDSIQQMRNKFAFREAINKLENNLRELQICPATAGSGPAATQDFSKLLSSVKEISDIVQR
UniProt Q99755, sequence (whole entry, looked up): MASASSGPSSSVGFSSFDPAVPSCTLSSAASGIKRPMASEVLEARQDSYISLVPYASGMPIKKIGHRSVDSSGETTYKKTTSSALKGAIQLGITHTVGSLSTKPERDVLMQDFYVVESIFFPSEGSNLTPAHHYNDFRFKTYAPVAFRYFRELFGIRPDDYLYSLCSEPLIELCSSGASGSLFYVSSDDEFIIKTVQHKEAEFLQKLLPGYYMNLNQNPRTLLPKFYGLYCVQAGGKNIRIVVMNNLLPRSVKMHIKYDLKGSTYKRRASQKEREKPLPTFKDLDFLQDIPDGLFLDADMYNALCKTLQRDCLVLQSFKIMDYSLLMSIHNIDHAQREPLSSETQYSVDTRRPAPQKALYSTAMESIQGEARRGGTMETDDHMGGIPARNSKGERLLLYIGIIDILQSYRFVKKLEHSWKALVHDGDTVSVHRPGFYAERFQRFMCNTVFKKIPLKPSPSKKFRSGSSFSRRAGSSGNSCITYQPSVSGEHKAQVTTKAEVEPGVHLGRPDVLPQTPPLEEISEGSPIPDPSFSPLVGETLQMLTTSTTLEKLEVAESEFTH
UniProt P25098, sequence (whole entry, looked up): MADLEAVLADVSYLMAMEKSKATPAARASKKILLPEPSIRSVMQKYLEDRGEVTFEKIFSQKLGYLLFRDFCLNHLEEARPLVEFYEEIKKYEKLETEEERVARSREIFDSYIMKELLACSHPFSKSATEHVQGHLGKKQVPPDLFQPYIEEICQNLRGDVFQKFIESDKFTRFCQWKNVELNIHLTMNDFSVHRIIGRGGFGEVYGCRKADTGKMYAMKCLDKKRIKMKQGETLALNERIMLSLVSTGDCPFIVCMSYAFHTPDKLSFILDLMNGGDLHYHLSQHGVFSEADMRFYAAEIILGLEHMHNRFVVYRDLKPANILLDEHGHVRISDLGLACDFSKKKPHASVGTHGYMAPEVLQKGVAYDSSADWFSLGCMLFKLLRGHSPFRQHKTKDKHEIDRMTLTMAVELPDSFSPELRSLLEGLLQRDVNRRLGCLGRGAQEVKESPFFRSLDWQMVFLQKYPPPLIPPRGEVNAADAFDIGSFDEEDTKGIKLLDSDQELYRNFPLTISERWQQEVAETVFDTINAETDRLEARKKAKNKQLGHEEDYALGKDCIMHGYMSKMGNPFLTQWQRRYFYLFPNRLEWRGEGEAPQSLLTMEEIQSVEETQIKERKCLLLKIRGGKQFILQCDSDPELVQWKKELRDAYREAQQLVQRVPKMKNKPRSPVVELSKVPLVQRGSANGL
UniProt Q9UBF8, sequence (whole entry, looked up): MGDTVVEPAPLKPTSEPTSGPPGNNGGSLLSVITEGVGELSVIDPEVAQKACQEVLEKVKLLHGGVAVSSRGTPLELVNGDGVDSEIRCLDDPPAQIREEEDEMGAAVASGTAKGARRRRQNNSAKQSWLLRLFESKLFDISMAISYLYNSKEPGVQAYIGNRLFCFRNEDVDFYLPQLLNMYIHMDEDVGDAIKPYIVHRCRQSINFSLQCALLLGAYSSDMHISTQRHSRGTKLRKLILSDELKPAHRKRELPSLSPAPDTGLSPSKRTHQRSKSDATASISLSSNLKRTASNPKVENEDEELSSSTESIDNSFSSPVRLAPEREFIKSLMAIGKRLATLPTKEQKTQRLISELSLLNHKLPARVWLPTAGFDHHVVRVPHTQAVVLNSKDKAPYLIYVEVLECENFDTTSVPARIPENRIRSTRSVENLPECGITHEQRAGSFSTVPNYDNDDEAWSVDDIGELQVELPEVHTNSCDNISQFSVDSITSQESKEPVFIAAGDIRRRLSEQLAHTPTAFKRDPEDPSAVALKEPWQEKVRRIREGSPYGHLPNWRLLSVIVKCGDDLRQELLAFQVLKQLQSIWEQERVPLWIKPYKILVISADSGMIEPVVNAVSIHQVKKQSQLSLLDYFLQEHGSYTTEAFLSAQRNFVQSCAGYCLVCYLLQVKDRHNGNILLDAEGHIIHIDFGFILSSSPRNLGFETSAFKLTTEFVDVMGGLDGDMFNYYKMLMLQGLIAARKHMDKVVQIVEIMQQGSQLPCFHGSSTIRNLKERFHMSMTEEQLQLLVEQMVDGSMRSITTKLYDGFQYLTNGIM
UniProt Q99640, sequence (whole entry, looked up): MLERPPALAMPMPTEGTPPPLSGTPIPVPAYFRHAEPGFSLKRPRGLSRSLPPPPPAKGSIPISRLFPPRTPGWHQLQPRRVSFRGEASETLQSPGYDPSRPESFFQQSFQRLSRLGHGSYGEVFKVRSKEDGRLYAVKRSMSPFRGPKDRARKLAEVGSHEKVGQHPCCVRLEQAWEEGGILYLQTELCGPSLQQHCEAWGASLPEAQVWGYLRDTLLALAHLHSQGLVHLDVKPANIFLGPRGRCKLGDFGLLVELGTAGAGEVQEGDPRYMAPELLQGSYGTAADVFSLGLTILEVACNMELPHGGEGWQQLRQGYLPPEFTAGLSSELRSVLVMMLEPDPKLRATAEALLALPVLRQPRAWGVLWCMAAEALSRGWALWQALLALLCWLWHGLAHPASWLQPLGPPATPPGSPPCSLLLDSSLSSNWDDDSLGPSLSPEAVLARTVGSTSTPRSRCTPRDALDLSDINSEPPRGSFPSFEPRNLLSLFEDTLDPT

Set 1
Compound: COc1cccc(CNC(=O)c2nc3scc(COCc4ccc(C(=O)O)cc4)c3c(=O)[nH]2)c1
Read-out: cell-free assay
Technique: competition with immobilised ligand
Tested at: 1 µM
Endpoint: remaining binding
target = Phosphatidylinositol 4-kinase beta (PI4KB, Homo sapiens, UniProt Q9UBF8); result = 59.9%
target = Tyrosine-protein kinase Mer (MERTK, Homo sapiens, UniProt Q12866); result = 88.3%
target = Membrane-associated tyrosine- and threonine-specific cdc2-inhibitory kinase (PKMYT1, Homo sapiens, UniProt Q99640); result = 88%
target = Beta-adrenergic receptor kinase 1 (GRK2, Homo sapiens, UniProt P25098); result = 50.1%
target = Phosphatidylinositol 4-phosphate 5-kinase type-1 alpha (PIP5K1A, Homo sapiens, UniProt Q99755); result = 100%

Set 2
Compound: CC(C)n1cnc(-c2ccc(F)cc2)c1-c1ncc(C(=O)Nc2ccc(N3CCN(C)CC3)cc2)[nH]1
Technique: Phase 2a trial
Host: idiopathic pulmonary fibrosis patients
Endpoint: patients with adverse events
test = item: gamma-glutamyltransferase increased; conditions = dose not given, grade 1 maximum intensity, all arms; result = 0%
test = item: tri-iodothyronine increased; conditions = 30 mg once daily, grade 5 maximum intensity; result = 0%
test = item: muscular weakness; conditions = 30 mg once daily, grade 3 maximum intensity; result = 0%
test = item: vision blurred; conditions = 30 mg once daily, grade 2 maximum intensity; result = 0%
test = item: reticulocyte count increased; conditions = dose not given, grade 3 maximum intensity, all arms; result = 0%

Set 3
Host: human
Matrix: microsomes or S9
Tested at: 2 µM
Time: 0.5 h
Endpoint: remaining compound
SMILES = Cc1c(C)c(C)c(CNC(=O)C2CNC(=O)C2)c(C)c1C (stereo not drawn); result = 79.3%
SMILES = Clc1ccc(C2=NN(c3ccccc3)C(c3ccccc3Cl)C2)cc1 (stereo not drawn); result = 91%
SMILES = Cc1cccc(/N=c2/ncc3c([nH]2)CC(c2ccc(F)cc2)CC3=O)c1 (stereo not drawn); result = 9.05%
SMILES = CCCn1c(=O)c2sccc2n2c(CCC(=O)Nc3ccc(CC)cc3)nnc12; result = 16.3%
SMILES = CCN(CCCN(C)C)S(=O)(=O)c1ccc(S(=O)(=O)CC)cc1; result = 90.9%

Set 4
Target: Aurora kinase B (AURKB, Homo sapiens, UniProt Q96GD4)
UniProt Q96GD4, sequence (whole entry, looked up): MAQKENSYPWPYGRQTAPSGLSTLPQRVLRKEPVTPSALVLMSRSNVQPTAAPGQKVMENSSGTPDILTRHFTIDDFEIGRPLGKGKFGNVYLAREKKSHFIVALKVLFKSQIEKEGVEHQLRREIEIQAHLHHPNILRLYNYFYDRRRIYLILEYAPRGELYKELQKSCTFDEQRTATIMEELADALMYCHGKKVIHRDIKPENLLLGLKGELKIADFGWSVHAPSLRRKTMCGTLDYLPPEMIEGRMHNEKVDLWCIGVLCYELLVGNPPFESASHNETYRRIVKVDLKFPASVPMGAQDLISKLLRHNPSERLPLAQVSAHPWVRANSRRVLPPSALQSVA
Read-out: enzyme activity
Action: inhibitor
Tested at: 0.5 µM
Relative to: control
Endpoint: remaining activity
SMILES = Cc1nc(-c2ccccc2)c(-c2ccncc2)o1; result = 97.3%
SMILES = O=c1c2ccccc2[nH]c(=S)n1CCN1CCC(=C(c2ccc(F)cc2)c2ccc(F)cc2)CC1; result = 102%
SMILES = O=C(O)c1ccc2c3c1cccc3c(=O)n1c3ccccc3nc21; result = 82.5%
SMILES = Cn1sc(=O)n(Cc2ccccc2)c1=O; result = 102%
SMILES = Cn1c2ccccc2c2c3c(c4c5ccccc5n(CCC#N)c4c21)CNC3=O; result = 33.1%
SMILES = Cc1ccc(NC(=O)c2ccc(CN3CCN(C)CC3)cc2)cc1Nc1nc(-c2cccnc2)cs1; result = 99.5%
SMILES = Oc1ccc(-c2nc(-c3ccncc3)c(-c3ccc(F)cc3)[nH]2)cc1; result = 104%
SMILES = COc1cc2nccc(Oc3ccc(NC(=S)NC(=O)c4ccccc4C)cc3)c2cc1OC; result = 4.31%
SMILES = O=S(=O)(c1cccc2cnccc12)N1CCCNCC1; result = 98.8%
SMILES = Nc1ncnc2n[nH]c(Nc3ccc(F)cc3)c12; result = 96.9%
SMILES = NCCNc1ncc(C(N)=O)c(Nc2cccc(C(F)(F)F)c2)n1; result = 93.4%
SMILES = COc1ccc(OC)c2c(=S)c3ccccc3[nH]c12; result = 89.6%
SMILES = Cc1cccc(-c2[nH]c(C(C)(C)C)nc2-c2ccc3c(c2)OCO3)n1; result = 96.5%
SMILES = O=C1NC(=O)C(c2cn(CCCO)c3ncccc23)=C1c1cnccn1; result = 101%

Single results of other studies
Structure (SMILES) = C[C@H]1CC[C@H](n2c3cnccc3c3cnc(Nc4ccc5c(n4)CCN(C(=O)CO)C5)nc32)CC1; target = Tyrosine-protein kinase ABL1 (ABL1, Homo sapiens, UniProt P00519, M351T); test = cell-free assay; conditions = 1 µM; endpoint = remaining signal; result = 92%

For quick reference, copied from above (set 4):
SMILES = Cc1cccc(-c2[nH]c(C(C)(C)C)nc2-c2ccc3c(c2)OCO3)n1; result = 96.5%
SMILES = COc1cc2nccc(Oc3ccc(NC(=S)NC(=O)c4ccccc4C)cc3)c2cc1OC; result = 4.31%
SMILES = O=S(=O)(c1cccc2cnccc12)N1CCCNCC1; result = 98.8%
SMILES = O=C1NC(=O)C(c2cn(CCCO)c3ncccc23)=C1c1cnccn1; result = 101%
